Measured values gathered from unrelated publications.
Each numbered part is a random draw from the data of one study; scales do not carry over between parts. Changes are numbered by the printed parent chain.

Sample 1 — method: RNA Bind-n-Seq; form: RNA; matrix: in vitro; tested at: 1 µM; setting: whole 134-nt RNA, ends assumed; with: 150 mM KCl; reference: input library; direction: higher = stronger binding; quantity: log2 enrichment
Target: Ras GTPase-activating protein-binding protein 1, RRM domain (G3BP1, Homo sapiens, UniProt Q13283)
UniProt Q13283, sequence (whole entry, looked up): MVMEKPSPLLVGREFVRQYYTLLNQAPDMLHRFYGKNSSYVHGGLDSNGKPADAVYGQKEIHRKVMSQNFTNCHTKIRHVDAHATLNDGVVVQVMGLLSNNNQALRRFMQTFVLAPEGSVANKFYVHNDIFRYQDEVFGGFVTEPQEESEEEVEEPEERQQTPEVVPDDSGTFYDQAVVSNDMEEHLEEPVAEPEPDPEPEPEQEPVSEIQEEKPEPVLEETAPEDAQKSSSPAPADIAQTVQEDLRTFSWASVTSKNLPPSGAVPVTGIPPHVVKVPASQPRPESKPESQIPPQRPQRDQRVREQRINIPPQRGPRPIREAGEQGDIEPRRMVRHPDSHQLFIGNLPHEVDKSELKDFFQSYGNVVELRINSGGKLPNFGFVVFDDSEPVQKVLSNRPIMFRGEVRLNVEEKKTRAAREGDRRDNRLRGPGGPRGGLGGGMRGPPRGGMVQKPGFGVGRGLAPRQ
Constant ends, left off below: GGGAGUUCUACAGUCCGACGAUC … UGGAAUUCUCGGGUGUCAAGG
Strand = UCCUGUGCUACACAUCGUAUGUACCGAAUCGGCCCCCCGGCCCCCCGGGGCCCCCCGGGGAAAGUAUUAUGUUACGCCGUUCGGAUCUGC; result = -0.462
Strand = CUCAAGUCCUGUGCUACACAUCGUAUGUACCGAAUCGGAGGAGGUUUUUUUGGAAAGUAUUAUGUUACGCCGUUCGGAUCUGCACUUCCA; result = -0.195
Strand = UAACUUUAGAGGAGGAUCUGGUGGAUAUGGCAGUGGACGUGGAUUUGGGGAUGGCUAUAAUGGGUAUGGAGGAGGACCUGGAGGUGGCAA; result = -0.814
Strand = UUCGACGAAACAAUUCGAAAGCCCAUCAGUUUGGGUUGUGGCCAUACUGUCUGCAAGAUGUGCCUGAAUAAACUCCACCGCAAGGCUUGC; result = -0.0467
Strand = CAAGUCCUGUGCUACACAUCGUAUGUACCGAAUCGGGUGGGAGGGAAAAAAAGGGAAAGUAUUAUGUUACGCCGUUCGGAUCUGCACUUC; result = 0.438
Strand = UGGGAGGUGGGUUUUGUUUAUUUUUUUAGCUCAUUUCCAGGGGUGGGAAUUUUUUUUUAAUAUGUGUCAUGAAUAAAGUUGUUUUUGAAA; result = 1.4
Strand = CAAGUCCUGUGCUACACAUCGUAUGUACCGAAUCGGAGGAAAAAAAGGUUUUUGGAAAGUAUUAUGUUACGCCGUUCGGAUCUGCACUUC; result = -0.198
Strand = UGUGCUACACAUCGUAUGUACCGAAUCGGGGAAAAAAAGGGGUUUUUGGGGUUUUUUUGGGGAAAGUAUUAUGUUACGCCGUUCGGAUCU; result = 1.21
Strand = UCCUGUGCUACACAUCGUAUGUACCGAAUCGGCCCCCCGGGGCCCCCCGGGCCCCCCGGGAAAGUAUUAUGUUACGCCGUUCGGAUCUGC; result = -0.481
Strand = UGGCCCUGGUGGCAUGCGGGGUGGAAGAGGUGGCCUCAUGGAUCGUGGUGGUCCCGGUGGAAUGUUCAGAGGUGGCCGUGGUGGAGACAG; result = 0.92
Strand = CAAGUCCUGUGCUACACAUCGUAUGUACCGAAUCGGGGUUGGGGUUGGGUUGGGGAAAGUAUUAUGUUACGCCGUUCGGAUCUGCACUUC; result = 1.07
Strand = AAGUCCUGUGCUACACAUCGUAUGUACCGAAUCGGGGCCCCGGCCCCGGGGCCCCGGAAAGUAUUAUGUUACGCCGUUCGGAUCUGCACU; result = -1.36
Strand = CUCAAGUCCUGUGCUACACAUCGUAUGUACCGAAUCGGGUGGGUGGGUUUGGGAAAGUAUUAUGUUACGCCGUUCGGAUCUGCACUUCCA; result = 0.657
Strand = CCUCAAGUCCUGUGCUACACAUCGUAUGUACCGAAUCGGGUGGGUGGGGUGGAAAGUAUUAUGUUACGCCGUUCGGAUCUGCACUUCCAG; result = 0.185

Sample 2 — method: aptamer microarray, sandwich; form: DNA with 2'F-ANA; matrix: in vitro; tested at: 200 nM; with: Cy3 exosite-II aptamer, 400 nM; direction: higher = stronger binding; quantity: mean fluorescence intensity; strand: GGTTGGTGTGGTTGG
Target: Prothrombin, mature alpha-thrombin (F2, Homo sapiens, UniProt P00734)
Setting: whole 15-mer aptamer, many near background
Modification = 2'F-ANA at 1 2 5 7 8 9 12 13; result = 77.6 a.u.
Modification = 2'F-ANA at 1 2 3 4 7 9 11 12 13 15; result = 188 a.u.
Modification = 2'F-ANA at 1 2 3 5 6 8 10 12 15; result = 54 a.u.
Modification = 2'F-ANA at 1 2 3 4 5 6 7 8 11 13 14; result = 48.4 a.u.
Modification = 2'F-ANA at 1 5 9 11; result = 52.4 a.u.
Modification = 2'F-ANA at 2 5 6 8 9 12 14 15; result = 60.4 a.u.
Modification = 2'F-ANA at 2 3 4 5 7 8 11 12 15; result = 169 a.u.
Modification = 2'F-ANA at 1 3 5 11 15; result = 57.5 a.u.
Modification = 2'F-ANA at 3 5 6 7 8 12; result = 263 a.u.
Modification = 2'F-ANA at 2 4 6 10 11 14; result = 56.7 a.u.
Modification = 2'F-ANA at 2 5 6 8 10 11 14 15; result = 50 a.u.
Modification = 2'F-ANA at 3 4 5 6 7 9 10 11 15; result = 51.8 a.u.
Modification = 2'F-ANA at 1 3 5 6 11 13 14; result = 56 a.u.
Modification = 2'F-ANA at 2 3 4 5 6 7 8 9 12 13 15; result = 104 a.u.
Modification = 2'F-ANA at 2 3 6 9 11 14; result = 379 a.u.
Modification = 2'F-ANA at 1 5 7 13; result = 45.7 a.u.
Modification = 2'F-ANA at 1 2 5 7 8 13 14; result = 44.4 a.u.
Modification = 2'F-ANA at 1 2 5 7 8 10 11 13 15; result = 50.8 a.u.
Modification = 2'F-ANA at 3 5 7 9 11 12 14 15; result = 80.2 a.u.
Modification = 2'F-ANA at 7 9 11 12 14; result = 286 a.u.

Sample 3 — method: RNA Bind-n-Seq; form: RNA; matrix: in vitro; tested at: 365 nM; reference: no-protein control; direction: higher = stronger binding; quantity: RBNS enrichment (R)
Target: RNA binding protein fox-1 homolog 2, RRM domain, GST-SBP tag (RBFOX2, Homo sapiens, UniProt O43251-10, residues 100-194)
Setting: natural RNA segment, single round, ends assumed
Constant ends, left off below: GGGAGUUCUACAGUCCGACGAUC … UGGAAUUCUCGGGUGCCAA
Residues (chain): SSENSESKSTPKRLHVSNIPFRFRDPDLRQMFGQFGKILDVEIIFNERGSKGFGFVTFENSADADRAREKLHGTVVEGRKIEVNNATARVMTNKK
Strand = GGCAAUAAUCAACAAUCUUCCAGAUUUGCACAAAAAGAUCUUGAAAUUUGAUGCAUAACUUUUAAGUACACUUAACACUUCAGGGCAGGAUUUUACUUUUAUUUUUUAAA; result = 0.807
Strand = GAUUUUGUUAGAGUUCAGAGCACAGCAUCACUCUGAAGGAGUCUGUCUUAUAAAUACAUAAUUACUGUUUAAGAUGUACACUUUGCUAUAGUUACAGAACCAUUGUGAAU; result = 0.368
Strand = AGCCAUGGAAGGUUGUGGUUGUAAAUGAGUUGUCUAAAGGGGUGCAGAGGCCUGAGGUUUCUAAAAGAAGGUAGAUUUCUACAGAGCUGAGUGUUGGUUCCUUUUUCUUA; result = 0.716
Strand = GCGAGCUUUUGAAAGCAACAGGGCCUAGCCUGCAAACAGUUAUCUUGGGAAACUGUCCAGCCACGUUUCCAUUACUCGGAGCUCUCGGUUACCUUCAGACAUGGUGCCGU; result = 1.16
Strand = AAGGUACUGGAAAACCUUCCACAUGCCCAACCUGAGACCUGUUCCCCAUCGCUACCAUUUGGCCAAACAACCGGCUACAAUGCUCUUCCUCUUCUGGAAUGUUGCUGACC; result = 0.242
Strand = GACUUUGUUUUUCUAGUUUCUUUUUUUUUUCUAAGAAGAGACUUGGAACGAGUCUGAUUCAUGGUGUUAAUAGAGGCUUCUUGUUUUAGGAAGCUUUGCUUACACUCUGG; result = 0.251
Strand = ACAAAUCUCAGAACAGUCUGAAAUACCUUUGCCUGGAUACCUCUGGCUCCUUCAGCAGCUAGAGCUCAGUAUACUAAUGCCCUAUCUUAGUAGAGAUUUCAUAGCUAUUU; result = 0.347
Strand = CAUUUUCUACCUGGCCCUAUCGCUGAGAGCCCCUCCCCAUGGCUCACUGAGGAGCACUCAGCCAGCAGUUCUCUAUCCUUAUCAGCCACAGAAUGCUUCUCACUGCCCGA; result = 0.937
Strand = AACCUGUGUUUGUAUUGGAGAUGUGUCUACUAUUGGGGGAAGAGGUUCUCGUAAUCGCUCGGUGGGAAAUCAUGGCUCUGCCGUCCUGCCUCUCUGUGGCCGUGGGUUCA; result = 0.326
Strand = CACCCCCUUUUCAAAAAUUGAAAACUCUAUGAGUGUCUUUUUGAGACCAUAAAGCAGACUUUAGUAACUUUCUAUUUCUGUAAGUACUAAAUGUCUGGCAUUUUAAACUU; result = 0.389
Strand = CCAGGCAGCUGGUCACUUACCAGGUGUGGACUUACGUUGCUGGGCUUGCAAAUGAAUUGCUAGUCCCUCAUUGUGCGGGUCUAUGUGGAGCUUUAAUCAGUAAAUGUCUC; result = 0.292
Strand = UAUUUAACUGUAUAAAAAUGUUCAUUUUACACAAUAUUUAAUUAAAGUAUUUCUUGUCUGUGAAUUUACUUUUGGUAAUUUUCUCUGUUUUUGAUUAUUAAAAUGACUAA; result = 0.544

Sample 4 — target: CCND2, cyclin fold, Cln2 fusion (human); method: yeast growth competition, sequencing; matrix: yeast; setting: weak parent motif; reference: not given; direction: higher = stronger binding; quantity: normalised enrichment score
Starting sequence: WEE2 docking peptide (human); KELRQKLNFSYCE; partner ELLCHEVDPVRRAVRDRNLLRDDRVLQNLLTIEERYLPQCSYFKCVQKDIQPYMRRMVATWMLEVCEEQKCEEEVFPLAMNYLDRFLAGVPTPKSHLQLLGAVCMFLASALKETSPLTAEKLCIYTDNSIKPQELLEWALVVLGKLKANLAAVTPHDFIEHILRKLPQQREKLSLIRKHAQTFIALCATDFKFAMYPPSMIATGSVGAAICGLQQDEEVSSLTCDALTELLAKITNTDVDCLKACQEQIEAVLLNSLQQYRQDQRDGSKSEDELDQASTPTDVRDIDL
Change = Y11A; result = -0.172
Change = Q5A; result = -0.0796
Change = F9A; result = 0.48
Change = K6A; result = 0.0779
Change = R4A; result = -0.101
Change = C12A; result = -0.283
Change = E13A; result = -0.13

A few entries again (sample 4):
Change = R4A; result = -0.101
Change = E13A; result = -0.13
Change = K6A; result = 0.0779
Change = F9A; result = 0.48
Change = Q5A; result = -0.0796
Change = C12A; result = -0.283
Change = Y11A; result = -0.172
